Experimental data gathered from unrelated publications.
Protocols differ between the studies behind these lines.
Target: Cytochrome P450 3A4 (CYP3A4, Homo sapiens, UniProt P08684)

By UniProt entry, the sequences of proteins in these tests, tags left out.
UniProt P08684, whole entry: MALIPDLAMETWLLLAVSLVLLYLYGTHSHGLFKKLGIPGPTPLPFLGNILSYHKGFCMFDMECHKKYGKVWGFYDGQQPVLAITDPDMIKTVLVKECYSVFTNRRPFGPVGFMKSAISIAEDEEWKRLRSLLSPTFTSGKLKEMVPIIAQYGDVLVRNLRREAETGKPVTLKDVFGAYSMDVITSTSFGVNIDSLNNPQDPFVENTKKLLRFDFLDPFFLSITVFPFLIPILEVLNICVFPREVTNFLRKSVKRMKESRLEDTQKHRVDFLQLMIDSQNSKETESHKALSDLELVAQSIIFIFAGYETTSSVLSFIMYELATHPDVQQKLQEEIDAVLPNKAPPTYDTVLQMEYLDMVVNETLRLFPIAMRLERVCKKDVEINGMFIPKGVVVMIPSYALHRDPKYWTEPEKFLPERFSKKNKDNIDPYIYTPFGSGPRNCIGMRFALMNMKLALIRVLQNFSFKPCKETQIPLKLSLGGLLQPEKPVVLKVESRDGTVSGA

SMILES	test	setting	measurement	value
Cc1cccc(NC(=O)C2CC3CCC2C3)c1C (centres unmarked)	enzyme activity, inhibitor	–	IC50	> 30000 nM
O=C(N[C@H](Cc1ccccc1)C(=O)O)c1sc2cc(F)ccc2c1Cl	enzyme activity	concentration not given	inhibition	no effect
COc1cc2c(cc1CCCOC(=O)c1ccccc1)OCO2	enzyme activity, inhibitor, fluorescence	with: dibenzyl fluorescein substrate	IC50	2100 nM
Cc1n[nH]c(C)c1CCOC(=O)c1cccc2c1oc(=O)n2C	inhibitor	10 µM	inhibition	14.1%
COc1ccc(NC(=O)CN2CCCN(S(=O)(=O)c3ccc(C)cc3)CC2)c(OC)c1	enzyme activity, inhibitor	–	IC50	3000 nM
CC(Cc1cc2c(cc1OCc1ccccc1)OCO2)OC(=O)C(c1ccccc1)c1ccccc1 (centres unmarked)	enzyme activity, inhibitor, fluorescence	with: dibenzyl fluorescein substrate	IC50	160 nM
COc1ccc(NC(=O)CN2CCCN(S(=O)(=O)c3ccccc3)CC2)c(OC)c1	enzyme activity, inhibitor	–	IC50	7000 nM
Cc1ccc(NC(=O)C2CC3CCC2C3)cc1 (centres unmarked)	enzyme activity, inhibitor	–	IC50	> 30000 nM

For quick reference, copied from above:
SMILES	test	setting	measurement	value
Cc1ccc(NC(=O)C2CC3CCC2C3)cc1 (centres unmarked)	enzyme activity, inhibitor	–	IC50	> 30000 nM
